Results of several laboratories.
A part holds a random share of what one study measured.

Series 1
Target: Ras GTPase-activating protein-binding protein 1, C-terminal RGG region (G3BP1, Homo sapiens, UniProt Q13283)
UniProt Q13283, sequence (whole entry, looked up): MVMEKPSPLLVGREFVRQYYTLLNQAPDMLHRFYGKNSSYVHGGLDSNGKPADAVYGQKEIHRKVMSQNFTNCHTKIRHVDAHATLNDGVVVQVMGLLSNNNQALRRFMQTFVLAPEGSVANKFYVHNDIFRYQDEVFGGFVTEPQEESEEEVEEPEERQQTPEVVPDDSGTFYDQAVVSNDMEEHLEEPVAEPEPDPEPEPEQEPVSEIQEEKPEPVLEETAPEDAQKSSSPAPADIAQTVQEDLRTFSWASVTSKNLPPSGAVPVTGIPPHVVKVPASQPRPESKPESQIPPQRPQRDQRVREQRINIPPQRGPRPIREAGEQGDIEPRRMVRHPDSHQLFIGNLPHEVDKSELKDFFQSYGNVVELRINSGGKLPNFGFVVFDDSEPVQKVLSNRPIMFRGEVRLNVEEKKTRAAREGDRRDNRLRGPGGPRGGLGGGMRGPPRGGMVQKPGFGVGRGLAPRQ
Method: RNA Bind-n-Seq
Form: RNA
Medium: in vitro
Concentration: 1 µM
Setting: whole 134-nt RNA, ends assumed
Together with: 150 mM KCl
Baseline: input library
Direction: higher = stronger binding
Measurement: log2 enrichment
All sequences stand within: GGGAGUUCUACAGUCCGACGAUC … UGGAAUUCUCGGGUGUCAAGG
UCCUCAAGUCCUGUGCUACACAUCGUAUGUACCGAAUCGGAGGGGAGGAGGAAAGUAUUAUGUUACGCCGUUCGGAUCUGCACUUCCAGC: -1.35
AGUCCUGUGCUACACAUCGUAUGUACCGAAUCGGGAAAGGGUUUUUGGGUUUUUGGGAAAGUAUUAUGUUACGCCGUUCGGAUCUGCACU: 0.079
GCAGGAAGUAAAAACAAAUGGAAAUGCUUCGGAUAGUGGCAGGGCUGGGGGUUGCUAAGGAAAGGGUGGGAUGGGAGUGGGUAAAGAGUU: 1.8
AAAAGACAACACGCACCCACACAGACACAGAGGGAAGGGGUUGGGAUGGGGACAGGGUGCACAGCAGGGCGGGGUAGGACCCCAGCCCCU: 0.00625
UGUGCUACACAUCGUAUGUACCGAAUCGGGGAAAAAAAGGGGAAAAAAAGGGGAAAAAAAGGGAAAGUAUUAUGUUACGCCGUUCGGAUC: -0.867
GUCCUGUGCUACACAUCGUAUGUACCGAAUCAAAUUUAAACCCCCCCAAACCCCCAAAAAAGUAUUAUGUUACGCCGUUCGGAUCUGCAC: -0.779
UGGCCCUGGUGGCAUGCGGGGAGGAAGAGGUGGCCUCAUGGAUCGUGGUGGUCCCGGUGGAAUGUUCAGAGAUGGCCGUGGUGGAGACAG: 3.29
UCCUGUGCUACACAUCGUAUGUACCGAAUCGGGGAAAAAGGGAAAAAGGGGAAAAAGGGGAAAGUAUUAUGUUACGCCGUUCGGAUCUGC: -0.246
UCCUGUGCUACACAUCGUAUGUACCGAAUCGGGAAAAAAGGGAAAAAAGGGAAAAAAGGAAAGUAUUAUGUUACGCCGUUCGGAUCUGCA: -1.12
GCAGGAAGUAAAAACAAAUGGAAAUGCUUCGGAUAGUGGCAGGGGUGGGGGUUGCUAAGGAAAGGGUGGGAUGGGAGUGGGUAAAGAGUU: 2.02
UCCUGUGCUACACAUCGUAUGUACCGAAUCGGCCCCCCGGGGCCCCCCGGGGCCCCCCGGAAAGUAUUAUGUUACGCCGUUCGGAUCUGC: -1.37
AAGUCCUGUGCUACACAUCGUAUGUACCGAAUCGGAAAGGUUUUUUUGGAAAAAGGAAAGUAUUAUGUUACGCCGUUCGGAUCUGCACUU: -2.31
GUCCUGUGCUACACAUCGUAUGUACCGAAUCGGGAAAGGGUUUUUGGGUUUUUUUGGGAAAGUAUUAUGUUACGCCGUUCGGAUCUGCAC: -0.254
CACAGACAACACGCACCCACACAGACACAGAGGGAAGGGGUUGGGAUAAAGACAGGGUGCACAGCAGGGCGGGGUAGGACCCCAGCCCCU: 0.136

Series 2
Target: Prothrombin, mature alpha-thrombin (F2, Homo sapiens, UniProt P00734)
Method: aptamer microarray, sandwich
Form: DNA with 2'F-ANA
Medium: in vitro
Concentration: 200 nM
Setting: whole 15-mer aptamer, many near background
Together with: Cy3 exosite-II aptamer, 400 nM
Direction: higher = stronger binding
Measurement: mean fluorescence intensity
Oligonucleotide: GGTTGGTGTGGTTGG
2'F-ANA at 1 2 3 4 6 7 9 10 11 14: 47.1 a.u.
2'F-ANA at 1 5 6 8 9 12 13 14 15: 46.8 a.u.
2'F-ANA at 1 4 5 6 10 11 12 13: 48.9 a.u.
2'F-ANA at 1 2 3 4 6 7 9 11 12 13 15: 148 a.u.
2'F-ANA at 2 5 6 8 11 13: 57.4 a.u.
2'F-ANA at 1 3 6: 307 a.u.
2'F-ANA at 5 8 12 14: 62.3 a.u.
2'F-ANA at 1 2 4 5 7 9 10 11 12 13: 71.3 a.u.
2'F-ANA at 1 2 6 7 10 13: 50.7 a.u.
2'F-ANA at 1 2 4 5 6 9 11 12: 87.2 a.u.
2'F-ANA at 1 2 5 9 12 13 14: 42.4 a.u.
2'F-ANA at 3 5 6 7 11 12 14: 63.2 a.u.
2'F-ANA at 1 2 4 5 6 8 10 14 15: 60 a.u.
2'F-ANA at 1 6 8 11 13 15: 141 a.u.
2'F-ANA at 1 3 6 8 11 12 13 15: 452 a.u.
2'F-ANA at 4 5 10 15: 46.8 a.u.
2'F-ANA at 1 2 3 5 7 8 9 12 13 15: 87 a.u.
2'F-ANA at 2 5 9 11 12: 129 a.u.
2'F-ANA at 1 2 3 4 7 9 11 14 15: 58.2 a.u.
2'F-ANA at 1 2 3 4 5 6 8 9 10 11 12 15: 51.1 a.u.
2'F-ANA at 1 3 4 7 10 13: 57.6 a.u.
2'F-ANA at 1 5 6 7 9 13 14 15: 64.3 a.u.
2'F-ANA at 1 4 6 7 9 10 11 12 14: 50.6 a.u.
2'F-ANA at 1 3 4 6 7 8 11 14 15: 71.2 a.u.
2'F-ANA at 3 4 5 9 10 11 13 14 15: 47.8 a.u.

Series 3
Target: RNA binding protein fox-1 homolog 2, RRM domain, GST-SBP tag (RBFOX2, Homo sapiens, UniProt O43251-10, residues 100-194)
Method: RNA Bind-n-Seq
Form: RNA
Medium: in vitro
Concentration: 365 nM
Setting: natural RNA segment, single round, ends assumed
Baseline: no-protein control
Direction: higher = stronger binding
Measurement: RBNS enrichment (R)
All sequences stand within: GGGAGUUCUACAGUCCGACGAUC … UGGAAUUCUCGGGUGCCAA
Construct (chain): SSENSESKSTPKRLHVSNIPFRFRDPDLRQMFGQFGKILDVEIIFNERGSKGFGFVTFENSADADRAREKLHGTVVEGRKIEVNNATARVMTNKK
UUCAUCUGAGCAUAACUGUACUAAAUCCUUUUUCCAUAUCAGUAUAAUAAAGGAGUGAUGUGCAAUAGCUUCUUGUGUGAUGUGGAAGACCUUAUCUGAGGAAACUUUAG: 0.25
CAAUUGGUAUUACAGGGGGGAAAAGUAAAAUUACACUUUACCUGAAAGUGACUUCUUACAGCUAGUGCAUUGUGCUCUUUCCAAGUUCAGCAGCAGUUCUAUCAGUGGUG: 0.457
AAUUGAUUGAUACCUCAGUUUAAUUCAGAGAGGUUCGCUAAGUGUUGGAUUCUAGUUGUGGUUUGAAUGCAGCAGUGUACUCUUGAAGUAAGCAGGCAAGGGUCACUGCA: 2.97
CAUGGAGAUCAAAGAAAUAGCAAGCAGGACCCGCAGGGAACUACUGGGCCUCUCGGAUGAAGGUGGACCCAAGUCAGAAGGAGCGCCAAAGGCCAAAUCAAAACCCCGGA: 0.341
GGUGCCACCAUUGGUGCUGCCUUCUCUUCCCACAGCCUGUAACUCAGUGUUUUGUACUUCACUGAAUUGUGAUGGUUAGAAACUUCGUGGAUAGUUUGUGGAAAUCAUCC: 0.698
UAUUCUUGUGGUUAAAAACCUGCCUAAAUUAAAUUGGGCUUCAAUCACUGUAACCUGAUUCAUCCUGGGAUGUAAACCAUUCGAAGUCAGCUAAUUGGACUUUUAUGGCU: 0.261
AUGGACUUCGUGAUUUUUGUUUUGCACUAAAGUUUCUGUGAUUUAACAAUAAAAUUCUGUUAGCCAGUCUGGGCCUAAUGUUUCUGUGACCCUUCAGCUGGAAGAGUUUG: 0.462
UUGUUUUAACAUUUUUUUCAAAGUAUUUAGGUAAUGAUGUAUUAACUUCACAUUCAGAUUUAUGUUCCAUUUCUUUUGACUGAGAAAAGUUGAACGGUAUGCAUGGUGAA: 4.96
UGUGGGGGAGGAGGAGAGGUCUCCAUGUGACACAUGGGCUCAGGGCUGCCAGAAUCAGCGGAUGCUGGAUGGGCCUGCAGAAACAACACUCACCACACACACUUCCUUCA: 0.369
GAAUUUUAAUAAAACAGAAGGAAACUAAUGGACCUUCCAGGAUUUAUUGUGGACGGAUGUGGAUAUAUUCUGUACAGGAACAACACAUAUGGAAGUGGACUGAAGCCUAU: 0.519
CAAAGUGACUGUUUGGCUUAUAAACACAUUGAAUGCGCUUUAUUGCCCAUGGGAUAUGUGGUGUAUAUCCUUCCAAAAAAUUAAAACGAAAAUAAAGUAGCUGCGAUUGG: 0.65
AAAACGACUCCAAAGUUAGACCUGCCUGUUGGGGAGAAUUCUAUAGACAGAAGGUCAAUGUUGUCCCCAUCCAUAGGGGUUGAAUUACCUUGCUGUUAAGUGGUCUUCCC: 0.328

Series 4
Target: Histone acetyltransferase KAT6A, both winged helices, GST fusion (KAT6A, Homo sapiens, UniProt Q92794, residues 1-181)
Method: protein binding microarray
Form: double-stranded DNA, one strand shown
Medium: in vitro
Concentration: not given
Setting: 8-mer, flanks averaged, mean of 2 arrays, mostly near background
Baseline: not given
Direction: higher = stronger binding
Measurement: E-score
Target sequence (chain): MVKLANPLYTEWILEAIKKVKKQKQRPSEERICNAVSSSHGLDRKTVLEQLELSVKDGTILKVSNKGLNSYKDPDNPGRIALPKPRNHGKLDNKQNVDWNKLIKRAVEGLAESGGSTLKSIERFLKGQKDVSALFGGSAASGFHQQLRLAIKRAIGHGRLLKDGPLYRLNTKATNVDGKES
GGATGCAC: 0.0426
AACAGATG: -0.128
GTAAGTTA: -0.0809
ATGCTACG: 0.11
CCAGTGGA: -0.219
ACTGCTCG: -0.0429
CATCCCGC: 0.232
GATGGCGA: 0.139
ACGAAGCT: -0.0699
GTCTCTAA: -0.18
ACGGAGTA: 0.151
TATCCCGA: -0.00325
AAAAGAAT: 0.0634
CAAGCTTA: -0.0269
TGGGAGAA: -0.279
CACCCTCC: -0.0983
CAGACGGC: 0.231
GATCCCCC: -0.109
ATAATCGC: 0.147
AACGGCTA: 0.229
TATCTCCA: -0.147
AGCGCATC: 0.226

Excerpt of the above (series 2):
2'F-ANA at 1 2 4 5 6 8 10 14 15: 60 a.u.
2'F-ANA at 1 2 3 4 5 6 8 9 10 11 12 15: 51.1 a.u.
2'F-ANA at 1 3 6: 307 a.u.
2'F-ANA at 3 4 5 9 10 11 13 14 15: 47.8 a.u.
2'F-ANA at 2 5 9 11 12: 129 a.u.
2'F-ANA at 1 5 6 7 9 13 14 15: 64.3 a.u.
2'F-ANA at 1 2 4 5 6 9 11 12: 87.2 a.u.
